Results gathered from unrelated publications.
Compare with care: the assays were run in different laboratories. Several values in a cell are separate wells, animals, samples, runs or records. ± marks the error that the study gave. Converted amounts (≈) assume the structure as drawn.

| SMILES | tested on | test | test system | setting | scale | measurement | value |
| --- | --- | --- | --- | --- | --- | --- | --- |
| COc1c(O)cc(C(=O)O)cc1O |  |  | broiler chickens, serum | oral, in feed, 2000 mg/kg feed, wheat diet with tannins |  | AUC | 640 ± 270 nM·h |
| Cc1ccccc1C(=O)Nc1ccc(C(=O)N2CCCC(O)c3cc(Cl)ccc32)c(C)c1 (centres unmarked) | Nedd8-cullin1 interaction | neddylation, AlphaScreen |  | 100 µM |  | inhibition | 25.6% |
| C=CC(=O)N(C)CCOc1c(N)ncnc1-c1cc(F)cc(NC(=O)c2ccc(C3CC3)cc2F)c1C |  |  | human, whole blood | oral, 100 mg twice daily, day 1 |  | AUC | 0.337 µg·h/mL |
| CCC[C@H]1CC[C@H](c2ccc(C#N)cc2)CC1 |  |  | Sprague-Dawley rat, female, placenta | 5000 ng/mL in perfusate, 50 (unit not given), high dose, mixture of 21 LCMs |  | median placental accumulation | 649 ng/g |
| COc1ccc2c(c1)CN(C(=O)CCN1CCC(Cc3ccccc3)CC1)CC[S@@+]2[O-] |  | telemetry | conscious male beagle dogs | intravenous, 8 mg/kg, 1 h |  | QT interval | 209 ± 38 ms |
| Cc1ccc(Sc2ccccc2N2CCNCC2)c(C)c1 |  | item: hot flush | healthy adult women | oral, 10 mg daily, 12 days |  | participants with TEAE | 0% |
| [18F]c1ccc(-c2ccc3c(c2)[nH]c2ccncc23)cn1 |  | ex vivo biodistribution | APP/PS1 mouse, Alzheimer model, urine | intravenous, 30 min |  | uptake | 7.97 ± 8.09 SUV |
| N#Cc1ccc2c(c1)[C@H]1CCCN(C(=O)c3ccc4[nH]cnc4c3)[C@H]1C2 |  |  | human, female | 360 mg, day 15 |  | DHEA-S level | 9.6 µmol/L |
| O=C(O)CCC(=O)O.[2H]C([2H])([2H])Oc1cc(C)c2[nH]ccc2c1CN1CC[C@@H](C2CC2)C[C@H]1c1ccc(C(=O)O)cc1 |  | multiple ascending dose | healthy Chinese subjects | 50 mg twice daily |  | subjects with dental ulcer TEAE | 0% |
| NC[C@@]1(CC(=O)O)[C@@H]2CC[C@H]3C[C@@H]2[C@@H]1C3 |  |  | human, moderate renal impairment, plasma | dose not given, geometric mean |  | unbound apparent volume of distribution | 49.2 L |
| COC(=O)[C@H]1[C@H]2C[C@@H]3c4[nH]c5cc(OC)ccc5c4CCN3C[C@H]2C[C@@H](OC(=O)c2cc(OC)c(OC)c(OC)c2)[C@@H]1OC | Nedd8-cullin1 interaction | neddylation, AlphaScreen |  | 100 µM |  | inhibition | 19.8% |
| Cc1cc(NC2CCN(C(=O)OC3CCN(C(=O)/C=C/CN(C)C)C3)CC2)n2ncc(C(C)C)c2n1 (centres unmarked) |  | Phase I dose escalation CTCAE v4.0, item: ALT increased | patients with advanced solid tumours | dose not given, TIW dosing grade 3 or higher |  | patients with adverse event | 0% |
| CC(C)NCCCC[C@@H]1NC(=O)[C@H](Cc2ccc(O)cc2)NC(=O)[C@H](Cc2ccccc2)NC(=O)CC[C@H](C(=O)N[C@@H](CCCCNC(C)C)C(=O)N[C@@H](CCCCNC(=O)[C@H](CCC(=O)O)NC(=O)[C@H](CCC(=O)O)NC(=O)[C@H](CCC(=O)O)NC(=O)CN2CCN(CC(=O)O)CCN(CC(=O)O)CCN(CC(=O)O)CC2)C(N)=O)NC(=O)CNC(=O)[C@H](Cc2ccc3ccccc3c2)NC(=O)[C@@H](CCCNC(=N)N)NC1=O [gallium-68 labelled] |  |  | mouse with JeKo-1 xenograft, bone | intravenous, 1 h |  | tissue uptake | 0.31 %ID/g |
| Cc1nc2cccc(OCC(C)(C)C(=O)NC(C)C)c2c(N)c1C(=O)O |  |  | Swiss albino CD-1 mouse | oral, 1000 mg/kg, 24 h |  | mean body weight change | -0.2 ± 0.4 g |
| Cc1ccc([C@@H]2O[C@H](CO)[C@@H](O)[C@H](O)[C@H]2O)cc1Cc1ccc(-c2ccc(F)cc2)s1 |  |  | Japanese type 2 diabetes patients | 400 mg, day 16, 24 h urine collection | relative to: baseline | urinary sodium excretion change | 24.8 mEq |
| CC(F)(F)c1nc2nc(CO)cc(Nc3ccc(S(F)(F)(F)(F)F)cc3)n2n1 |  | LC-MS/MS | malaria patients, plasma | oral, 600 mg of parent drug |  | half-life, metabolite | 108 h |
| CNC(=O)c1ccc(-c2cnc3ncc(Cc4ccc5ncccc5c4)n3n2)cc1F |  | CTCAE v4.0, any causality | human hepatocellular carcinoma patients | oral, 600 mg twice daily, expansion cohort at RP2D |  | creatinine increase incidence (all grades) | 9% |
| O=C(Cc1ccccc1[N+](=O)[O-])Nc1ccccc1C(=O)N1CCOCC1 |  |  | aqueous buffer | pH 7.4 |  | thermodynamic solubility | 98.9 µM (≈ 36.5 µg/mL) |
| CN1C(=O)[C@@H](NC(=O)c2nnc(Cc3ccccc3)[nH]2)COc2cccnc21 |  | phase I multiple ascending dose | human, male and female | oral, 50 mg, 14 days |  | medical device site reaction incidence | 25% |
| CCN(CC)Cc1ccc2cc(COC(=O)Nc3ccc(C(=O)NO)cc3)ccc2c1 |  |  | rat plasma | 5 ng/mL, three freeze-thaw cycles | relative to: nominal concentration | stability relative error | 88% |
| CNCc1ccc(-c2[nH]c3cc(F)cc4c3c2CCNC4=O)cc1 |  |  | human patients | oral, 360 mg twice daily, all grades |  | dyspnoea incidence | 37.5% |
| COc1cccc(OC)c1-c1cc(C(=O)NC2(C(=O)O)C3CC4CC(C3)CC2C4)nn1-c1ccc(C(=O)N(C)CCCN(C)CCCN(C)C(=O)CN2CCN(CC(=O)[O-])CCN(CC(=O)[O-])CCN(CC(=O)[O-])CC2)cc1C(C)C.[177Lu+3] (centres unmarked) |  |  | mouse, HT-29 xenograft | 168 h post injection, biodistribution | relative to: tumour over muscle uptake | tumour-to-muscle ratio | 6.06 |
| CCN1CCN(Cc2ccc(NC(=O)c3ccc(C)c(NC(=O)c4cncc(-c5cccs5)c4)c3)cc2C(F)(F)F)CC1 |  | LC-MS/MS | C57BL/6 mouse, plasma | intraperitoneal, 10 mg/kg single dose, 0.5 h |  | plasma concentration | 0.416 µg/mL and 0.581 µg/mL and 0.468 µg/mL |

Excerpt of the above:
| SMILES | tested on | test | test system | setting | scale | measurement | value |
| --- | --- | --- | --- | --- | --- | --- | --- |
| CC(F)(F)c1nc2nc(CO)cc(Nc3ccc(S(F)(F)(F)(F)F)cc3)n2n1 |  | LC-MS/MS | malaria patients, plasma | oral, 600 mg of parent drug |  | half-life, metabolite | 108 h |
